Measured values pooled from the literature.
Each line is one published result; not all experiments were run side by side. ± gives the spread as reported.

Structure (SMILES)	test	system	conditions	how to read	quantity	value
[2H]C([2H])([2H])C(c1cc2nnc(-c3cc(F)ccc3F)n2nc1OCc1ncnn1C)(C([2H])([2H])[2H])C([2H])([2H])[2H]	–	amygdala-kindled Wistar rats, amygdala	oral, 30 mg/kg, 2 h before stimulation	baseline: baseline	afterdischarge duration change	-64%
O=C1c2c(O)cc3oc4cc(O)c(O)cc4c3c2OC1Cc1ccccc1 (stereo not shown)	ABTS scavenging, absorbance	–	–	–	EC50	1030 µM
C=C(c1ncc(C(=O)O)cn1)c1cc2c(cc1C)C(C)(C)CCC2(C)C	RNA sequencing, refers to: Rbp1	rat, brain	dose not given, 24 h	baseline: vehicle	log2 fold change	-0.58
CC[C@@H](C)[C@H]1NC(=O)[C@@H]([C@H](C)O)NC(=O)[C@@H](Cc2c[nH]cn2)NC(=O)CNC(=O)[C@@H](CCCNC(=N)N)NC(=O)CNC(=O)[C@@H](Cc2ccccc2)NC1=O	VEGF-induced retinal vascular permeability	rat	eye drop, single dose	–	minimal effective dose	0.005 % eye drop
O=C1c2c(O)cc3oc4cc(O)c(O)cc4c3c2OC1Cc1ccc(O)c(O)c1 (stereo not shown)	ABTS scavenging, absorbance	–	–	–	EC50	910 µM
CCCC[C@H](NC(=O)[C@@H](NC(=O)[C@H](CC(=O)O)NC(=O)[C@H](CCC(N)=O)NC(=O)[C@H](CC(C)C)NC(=O)[C@H](CC(C)C)NC(=O)[C@H](CCCN)NC(=O)[C@H](CCCNC(=N)N)NC(=O)[C@H](C)NC(=O)[C@H](CO)NC(=O)[C@H](CC(C)C)NC(=O)[C@H](CCC(N)=O)NC(=O)[C@H](CC)NC(=O)[C@H](CC(C)C)NC(=O)[C@@H](NC(=O)[C@H](CCCN)NC(=O)[C@H](CCCNC(=N)N)NC(=O)[C@H](Cc1ccc(O)cc1)NC(=O)[C@H](CO)NC(=O)[C@H](CC(N)=O)NC(=O)[C@@H](NC(=O)[C@H](Cc1c(F)c(F)c(F)c(F)c1F)NC(=O)[C@@H](NC(=O)[C@H](C)NC(=O)[C@H](CC(=O)O)NC(=O)[C@@H](C)NC(=O)CCc1ccc(O)cc1)[C@@H](C)CC)[C@@H](C)O)C(C)C)[C@@H](C)CC)C(=O)N[C@@H](CO)C(=O)N[C@@H](CCCNC(=N)N)C(=O)NCCCC(N)=O	GH release	male rat, serum	subcutaneous, dose not given, 15 min	baseline: GHRH(1-29)NH2	relative potency	76.5
COc1c2c(cc3oc(CO)cc(=O)c13)O[C@H](C(C)(C)O)C2	analgesic effect	Kunming mouse, female	oral, 4 mg/kg, 0 h, 55 °C, before dosing, 30 s cut-off	–	hot plate latency	9 ± 1.17 s
COc1cc2c(cc1OC)-c1cc3ccc(OC)c(OC)c3c[n+]1CC2	–	rat, STZ-induced diabetic, liver	oral, 12 mg/kg, day 28	–	TBARS	2.97 ± 0.83 nmol MDA/mg protein
CC(C)C[C@H](NC(=O)[C@H](CCCNC(=N)N)NC(=O)CNC(=O)[C@@H](N)CC(C)C)C(=O)N[C@@H](CO)C(=O)N[C@@H](CCC(N)=O)C(=O)N[C@@H](CCC(=O)O)C(=O)N[C@@H](CC(C)C)C(=O)N[C@@H](Cc1c[nH]cn1)C(=O)N[C@@H](CCCNC(=N)N)C(=O)N[C@@H](CC(C)C)C(=O)N[C@@H](CCC(N)=O)C(=O)N[C@H](C(=O)N[C@@H](Cc1ccc(O)cc1)C(=O)N1CCC[C@H]1C(=O)N[C@@H](CCCNC(=N)N)C(=O)N[C@H](C(=O)N[C@@H](CC(N)=O)C(=O)N[C@H](C(=O)NCC(=O)N[C@@H](CO)C(=O)N[C@@H](CC(N)=O)C(=O)N[C@H](C(=O)N[C@@H](Cc1ccc(O)cc1)C(N)=O)[C@@H](C)O)[C@@H](C)O)[C@@H](C)O)[C@@H](C)O	–	TgCRND8 mice, brain	icv, dose not given, 5 months	baseline: vehicle	Iba-1 level reduction	50%
BP(=O)(OP(=O)([O-])OC[C@H]1O[C@@H](n2c[n+](C)c3c(O)nc(N)nc32)[C@H](O)[C@@H]1O)OP(=O)(O)OC[C@H]1O[C@@H](n2cnc3c(=O)[nH]c(N)nc32)[C@H](O)[C@@H]1O (stereo partly shown)	cap-dependent translation	rabbit reticulocyte lysate	pre-incubated in lysate	baseline: m7GpppG over compound	IC50 ratio	23 fold
COc1ccc(NC(=O)c2ccc(N(C)C(C)=N)cc2)c(C(=O)Nc2ccc(Cl)cn2)c1	–	human plasma	–	–	concentration doubling prothrombin time	0.1 ± 0.2 µM
CCCC[C@H](NC(=O)[C@@H](NC(=O)[C@H](CC(=O)O)NC(=O)[C@H](CCC(N)=O)NC(=O)[C@H](CC(C)C)NC(=O)[C@H](CC(C)C)NC(=O)[C@H](CCCN)NC(=O)[C@H](CCCNC(=N)N)NC(=O)[C@H](C)NC(=O)[C@H](CO)NC(=O)[C@H](CC(C)C)NC(=O)[C@H](CCC(N)=O)NC(=O)[C@H](CC)NC(=O)[C@H](CC(C)C)NC(=O)[C@@H](NC(=O)[C@H](CCCN)NC(=O)[C@H](CCCNC(=N)N)NC(=O)[C@H](Cc1ccc(O)cc1)NC(=O)[C@H](CO)NC(=O)[C@H](CCC(N)=O)NC(=O)[C@@H](NC(=O)[C@H](Cc1ccccc1)NC(=O)[C@@H](NC(=O)[C@H](C)NC(=O)[C@H](CC(=O)O)NC(=O)[C@@H](C)NC(=O)[C@H](Cc1ccc(O)cc1)NC)[C@@H](C)CC)[C@@H](C)O)C(C)C)[C@@H](C)CC)C(=O)N[C@@H](CC(=O)O)C(=O)NCCCCNC(=N)N	GH release	male rat, serum	subcutaneous, dose not given, 30 min	baseline: GHRH(1-29)NH2	relative potency	134
N[C@@H](Cc1c[nH]c2ccccc12)C(=O)N1CCC[C@H]1C(=O)NCC(=O)NCC(=O)O	diketopiperazine formation, Arrhenius plot, ESI-MS	1-propanol	70, 80, 90 °C, 0.5% acetic acid	–	activation energy	24.6 ± 1.67 kcal/mol
NS(=O)(=O)NCCc1ccccc1F	protection from scPTZ seizures	mouse	added: pentylenetetrazol 85 mg/kg s.c.	–	ED50	74 ± 3 mg/kg
CCCC[C@H](NC(=O)[C@@H](NC(=O)[C@H](CC(=O)O)NC(=O)[C@H](CCC(N)=O)NC(=O)[C@H](CC(C)C)NC(=O)[C@H](CC(C)C)NC(=O)[C@H](CCCN)NC(=O)[C@H](CCCNC(=N)N)NC(=O)[C@H](C)NC(=O)[C@H](CO)NC(=O)[C@H](CC(C)C)NC(=O)[C@H](CCC(N)=O)NC(=O)[C@H](CC)NC(=O)[C@H](CC(C)C)NC(=O)[C@@H](NC(=O)[C@H](CCCN)NC(=O)[C@H](CCCNC(=N)N)NC(=O)[C@H](Cc1ccc(O)cc1)NC(=O)[C@H](CO)NC(=O)[C@H](CCC(N)=O)NC(=O)[C@@H](NC(=O)[C@H](Cc1ccccc1)NC(=O)[C@@H](NC(=O)[C@H](C)NC(=O)[C@H](CC(=O)O)NC(=O)[C@@H](C)NC(=O)[C@H](Cc1ccc(O)cc1)NC)[C@@H](C)CC)[C@@H](C)O)C(C)C)[C@@H](C)CC)C(=O)N[C@@H](CC(=O)O)C(=O)N[C@@H](CCCNC(=N)N)C(=O)NC	GH release	rat, male, serum	subcutaneous, dose not given, 15 and 30 min	baseline: reference GHRH agonist JI-38	relative potency	3.6 to 4 fold
CCOC(=O)C(Cc1cccc(O)c1)OC(=O)C=Cc1ccc(O)c(O)c1C=Cc1ccc(O)c(O)c1 (stereo not shown)	refers to: CK, CK-MB, AST, LDH	transgelin knockout mice, isoproterenol ischaemia	10 mg/kg	–	cardiac injury markers	no effect
O=C([O-])CN1CCN(CC(=O)[O-])CCN(CC(=O)NC[C@H]2CC[C@H](C(=O)N[C@H](Cc3cnc4ccccc4c3)C(=O)NCCCC[C@H](NC(=O)N[C@@H](CCC(=O)O)C(=O)O)C(=O)O)CC2)CCN(CC(=O)[O-])CC1.[64Cu+2]	gamma counting	prostate cancer patients, prostate cancer biopsy cores	dose not given, 24 h post-injection	–	median radioactivity	134000 CPM
CCCC[C@H](NC(=O)[C@@H](NC(=O)[C@H](CC(=O)O)NC(=O)[C@H](CCC(N)=O)NC(=O)[C@H](CC(C)C)NC(=O)[C@H](CC(C)C)NC(=O)[C@H](CCCN)NC(=O)[C@H](CCCNC(=N)N)NC(=O)[C@H](C)NC(=O)[C@H](CO)NC(=O)[C@H](CC(C)C)NC(=O)[C@H](CCC(N)=O)NC(=O)[C@H](CC)NC(=O)[C@H](CC(C)C)NC(=O)[C@@H](NC(=O)[C@H](CCCN)NC(=O)[C@H](CCCNC(=N)N)NC(=O)[C@H](Cc1ccc(O)cc1)NC(=O)[C@H](CO)NC(=O)[C@H](CC(N)=O)NC(=O)[C@@H](NC(=O)[C@H](Cc1ccccc1)NC(=O)[C@@H](NC(=O)[C@H](C)NC(=O)[C@H](CC(=O)O)NC(=O)[C@@H](CC)NC(=O)CCc1ccc(O)cc1)[C@@H](C)CC)[C@@H](C)O)C(C)C)[C@@H](C)CC)C(=O)N[C@@H](CO)C(=O)N[C@@H](CCCNC(=N)N)C(=O)NCCCC(N)=O	GH release	rat, male, serum	subcutaneous, 3 µg/kg, 15 min	baseline: reference GHRH agonist JI-38	relative potency	0.83
CCCCC1NC(=O)c2ccccc21 (racemic)	thrombosis	mouse, carrageenan-induced thrombosis	oral, 20 mg/kg daily for 2 days, 24 h after carrageenan	–	black tail occurrence	40%
C[C@@H](O)[C@@H]1NC(=O)[C@H](CCCCN)NC(=O)[C@@H](Cc2ccc(NC(N)=O)cc2)NC(=O)[C@H](Cc2ccc(NC(=O)[C@@H]3CC(=O)NC(=O)N3)cc2)NC(=O)[C@H](NC(=O)[C@H](Cc2ccc(Cl)cc2)NC(=O)CN2CCN(CC(=O)O)CCN(CC(=O)O)CCN(CC(=O)O)CC2)CSSC[C@@H](C(=O)N[C@H](Cc2ccc(O)cc2)C(N)=O)NC1=O [gallium-68 labelled]	PET/CT	neuroendocrine tumour patients, lesions	60 min post-injection	–	median lesion SUVpeak	10
Cc1cc(O)c(C=O)c2c1C(=O)Oc1c(CO)c(O)c3c(c1O2)C(O)OC3=O (stereo not shown)	–	rat, male, streptozotocin-induced diabetes, seminal vesicle	oral, 5 mg/kg, 9 weeks	–	relative organ weight	0.13 ± 0.01 g
CCCCCCCOC(=O)Cc1c(C)n(C(=O)c2ccc(Cl)cc2)c2ccc(OC)cc12	hot plate test	BALB/c mice	100 mg/kg, 60 min	–	latency of nociceptive response	16.8 ± 0.71 s
CC[C@H](C)[C@H](NC(C)=O)C(=O)N[C@H]1CSSC[C@@H](C(=O)N(C)[C@H](C(N)=O)[C@@H](C)CC)NC(=O)[C@H](CCCNC(=N)N)NC(=O)[C@H](Cc2c[nH]cn2)NC(=O)[C@H](C)NC(=O)CN(C)C(=O)[C@H](Cc2c[nH]c3ccccc23)NC(=O)[C@H](CC(=O)O)NC(=O)[C@H](CCC(N)=O)NC(=O)[C@H](Cc2cn(C)c3ccccc23)NC(=O)[C@H](C(C)C)NC1=O	classical complement activation, ELISA C3b deposition	normal human plasma	hydrogen peroxide treated	baseline: untreated peptide	IC50 ratio	< 2
CCCC[C@H](NC(=O)[C@@H](NC(=O)[C@H](CC(=O)O)NC(=O)[C@H](CCC(N)=O)NC(=O)[C@H](CC(C)C)NC(=O)[C@H](CC(C)C)NC(=O)[C@H](CCCN)NC(=O)[C@H](CCCNC(=N)N)NC(=O)[C@H](C)NC(=O)[C@H](CO)NC(=O)[C@H](CC(C)C)NC(=O)[C@H](CCC(N)=O)NC(=O)[C@H](CC)NC(=O)[C@H](CC(C)C)NC(=O)[C@@H](NC(=O)[C@H](CCCN)NC(=O)[C@H](CCCNC(=N)N)NC(=O)[C@H](Cc1ccc(O)cc1)NC(=O)[C@H](CO)NC(=O)[C@H](CCC(N)=O)NC(=O)[C@@H](NC(=O)[C@H](Cc1ccccc1)NC(=O)[C@@H](NC(=O)[C@H](C)NC(=O)[C@H](CC(=O)O)NC(=O)[C@@H](C)NC(=O)CCc1ccc(O)cc1)[C@@H](C)CC)[C@@H](C)O)C(C)C)[C@@H](C)CC)C(=O)N[C@@H](CC(=O)O)C(=O)N[C@H](CCCNC(=N)N)C(=O)NC	GH release	male rat, serum	subcutaneous, dose not given, 15 min	baseline: GHRH(1-29)NH2	relative potency	58.8
CCCCSc1nnc(-c2ccc(N)cc2)o1	–	–	2 × IC50	–	H2O2 scavenging	81.9%

A few entries again:
Structure (SMILES)	test	system	conditions	how to read	quantity	value
C[C@@H](O)[C@@H]1NC(=O)[C@H](CCCCN)NC(=O)[C@@H](Cc2ccc(NC(N)=O)cc2)NC(=O)[C@H](Cc2ccc(NC(=O)[C@@H]3CC(=O)NC(=O)N3)cc2)NC(=O)[C@H](NC(=O)[C@H](Cc2ccc(Cl)cc2)NC(=O)CN2CCN(CC(=O)O)CCN(CC(=O)O)CCN(CC(=O)O)CC2)CSSC[C@@H](C(=O)N[C@H](Cc2ccc(O)cc2)C(N)=O)NC1=O [gallium-68 labelled]	PET/CT	neuroendocrine tumour patients, lesions	60 min post-injection	–	median lesion SUVpeak	10
CCCC[C@H](NC(=O)[C@@H](NC(=O)[C@H](CC(=O)O)NC(=O)[C@H](CCC(N)=O)NC(=O)[C@H](CC(C)C)NC(=O)[C@H](CC(C)C)NC(=O)[C@H](CCCN)NC(=O)[C@H](CCCNC(=N)N)NC(=O)[C@H](C)NC(=O)[C@H](CO)NC(=O)[C@H](CC(C)C)NC(=O)[C@H](CCC(N)=O)NC(=O)[C@H](CC)NC(=O)[C@H](CC(C)C)NC(=O)[C@@H](NC(=O)[C@H](CCCN)NC(=O)[C@H](CCCNC(=N)N)NC(=O)[C@H](Cc1ccc(O)cc1)NC(=O)[C@H](CO)NC(=O)[C@H](CC(N)=O)NC(=O)[C@@H](NC(=O)[C@H](Cc1ccccc1)NC(=O)[C@@H](NC(=O)[C@H](C)NC(=O)[C@H](CC(=O)O)NC(=O)[C@@H](CC)NC(=O)CCc1ccc(O)cc1)[C@@H](C)CC)[C@@H](C)O)C(C)C)[C@@H](C)CC)C(=O)N[C@@H](CO)C(=O)N[C@@H](CCCNC(=N)N)C(=O)NCCCC(N)=O	GH release	rat, male, serum	subcutaneous, 3 µg/kg, 15 min	baseline: reference GHRH agonist JI-38	relative potency	0.83
COc1cc2c(cc1OC)-c1cc3ccc(OC)c(OC)c3c[n+]1CC2	–	rat, STZ-induced diabetic, liver	oral, 12 mg/kg, day 28	–	TBARS	2.97 ± 0.83 nmol MDA/mg protein
